Published values from different studies.
Protocols differ between the studies behind these lines. ± gives the spread as reported.
RPA1 N-terminal domain: Replication protein A 70 kDa DNA-binding subunit, N-terminal domain (RPA1, Homo sapiens, UniProt P27694)
Hepatitis A virus cellular receptor 2: Hepatitis A virus cellular receptor 2 (Homo sapiens, UniProt Q8TDQ0)

Sequences of proteins named here, by UniProt entry; tags and fusion partners are left off. A change or cut given only in a name is not applied to a line headed by its entry. Residues count along the entry.
UniProt Q8TDQ0, whole entry, looked up: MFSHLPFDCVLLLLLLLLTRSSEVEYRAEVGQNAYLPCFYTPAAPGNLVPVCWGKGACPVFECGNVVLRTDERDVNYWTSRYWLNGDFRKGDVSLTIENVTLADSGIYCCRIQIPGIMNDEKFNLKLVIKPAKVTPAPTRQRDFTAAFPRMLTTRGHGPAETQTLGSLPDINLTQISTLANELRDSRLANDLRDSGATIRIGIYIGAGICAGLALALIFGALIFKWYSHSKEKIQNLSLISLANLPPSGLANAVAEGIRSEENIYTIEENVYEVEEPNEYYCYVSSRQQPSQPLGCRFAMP
UniProt P51531, whole entry, looked up, stated change not applied: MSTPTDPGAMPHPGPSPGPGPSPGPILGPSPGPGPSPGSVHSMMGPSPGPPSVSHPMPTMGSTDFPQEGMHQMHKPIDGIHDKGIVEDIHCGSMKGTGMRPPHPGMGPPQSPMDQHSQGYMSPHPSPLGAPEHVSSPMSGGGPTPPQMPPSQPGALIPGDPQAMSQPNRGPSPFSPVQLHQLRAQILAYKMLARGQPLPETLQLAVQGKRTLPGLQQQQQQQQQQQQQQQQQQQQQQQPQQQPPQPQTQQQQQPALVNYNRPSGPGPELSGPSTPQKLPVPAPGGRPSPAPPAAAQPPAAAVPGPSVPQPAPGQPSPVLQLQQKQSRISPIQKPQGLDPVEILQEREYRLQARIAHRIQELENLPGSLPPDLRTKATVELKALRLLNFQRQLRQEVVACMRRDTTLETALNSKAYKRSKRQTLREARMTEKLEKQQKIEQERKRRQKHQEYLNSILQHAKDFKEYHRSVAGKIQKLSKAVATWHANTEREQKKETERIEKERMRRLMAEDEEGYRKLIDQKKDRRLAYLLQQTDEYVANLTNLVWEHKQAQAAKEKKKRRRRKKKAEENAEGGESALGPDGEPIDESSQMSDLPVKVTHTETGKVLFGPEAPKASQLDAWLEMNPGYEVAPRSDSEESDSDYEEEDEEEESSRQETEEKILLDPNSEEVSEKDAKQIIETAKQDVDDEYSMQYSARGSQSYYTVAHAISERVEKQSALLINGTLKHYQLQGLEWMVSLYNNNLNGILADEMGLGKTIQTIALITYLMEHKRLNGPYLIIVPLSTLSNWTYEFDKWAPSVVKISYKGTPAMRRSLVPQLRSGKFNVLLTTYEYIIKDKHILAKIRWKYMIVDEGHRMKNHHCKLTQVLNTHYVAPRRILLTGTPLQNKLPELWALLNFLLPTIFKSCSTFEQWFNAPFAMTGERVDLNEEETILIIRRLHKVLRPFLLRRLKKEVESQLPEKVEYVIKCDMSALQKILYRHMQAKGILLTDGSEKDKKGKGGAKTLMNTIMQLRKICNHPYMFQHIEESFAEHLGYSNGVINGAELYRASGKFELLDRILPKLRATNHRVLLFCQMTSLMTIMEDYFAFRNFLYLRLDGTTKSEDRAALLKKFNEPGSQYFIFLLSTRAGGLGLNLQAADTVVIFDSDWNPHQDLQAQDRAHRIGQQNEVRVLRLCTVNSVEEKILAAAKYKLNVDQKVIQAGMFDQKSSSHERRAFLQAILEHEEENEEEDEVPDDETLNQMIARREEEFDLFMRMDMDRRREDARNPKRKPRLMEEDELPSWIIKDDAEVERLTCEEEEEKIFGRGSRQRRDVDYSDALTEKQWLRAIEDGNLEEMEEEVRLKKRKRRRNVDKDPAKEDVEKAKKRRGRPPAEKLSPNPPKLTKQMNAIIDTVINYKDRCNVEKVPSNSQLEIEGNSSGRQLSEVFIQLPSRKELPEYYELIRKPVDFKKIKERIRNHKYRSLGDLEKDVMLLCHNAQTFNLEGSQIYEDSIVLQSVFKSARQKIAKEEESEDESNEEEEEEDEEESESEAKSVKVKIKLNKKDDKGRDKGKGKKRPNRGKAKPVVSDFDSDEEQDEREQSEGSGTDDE
UniProt O15151, 23-111 limits assumed: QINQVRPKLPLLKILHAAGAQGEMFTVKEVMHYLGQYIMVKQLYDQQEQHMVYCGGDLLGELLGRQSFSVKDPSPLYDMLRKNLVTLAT
UniProt O60502, whole entry: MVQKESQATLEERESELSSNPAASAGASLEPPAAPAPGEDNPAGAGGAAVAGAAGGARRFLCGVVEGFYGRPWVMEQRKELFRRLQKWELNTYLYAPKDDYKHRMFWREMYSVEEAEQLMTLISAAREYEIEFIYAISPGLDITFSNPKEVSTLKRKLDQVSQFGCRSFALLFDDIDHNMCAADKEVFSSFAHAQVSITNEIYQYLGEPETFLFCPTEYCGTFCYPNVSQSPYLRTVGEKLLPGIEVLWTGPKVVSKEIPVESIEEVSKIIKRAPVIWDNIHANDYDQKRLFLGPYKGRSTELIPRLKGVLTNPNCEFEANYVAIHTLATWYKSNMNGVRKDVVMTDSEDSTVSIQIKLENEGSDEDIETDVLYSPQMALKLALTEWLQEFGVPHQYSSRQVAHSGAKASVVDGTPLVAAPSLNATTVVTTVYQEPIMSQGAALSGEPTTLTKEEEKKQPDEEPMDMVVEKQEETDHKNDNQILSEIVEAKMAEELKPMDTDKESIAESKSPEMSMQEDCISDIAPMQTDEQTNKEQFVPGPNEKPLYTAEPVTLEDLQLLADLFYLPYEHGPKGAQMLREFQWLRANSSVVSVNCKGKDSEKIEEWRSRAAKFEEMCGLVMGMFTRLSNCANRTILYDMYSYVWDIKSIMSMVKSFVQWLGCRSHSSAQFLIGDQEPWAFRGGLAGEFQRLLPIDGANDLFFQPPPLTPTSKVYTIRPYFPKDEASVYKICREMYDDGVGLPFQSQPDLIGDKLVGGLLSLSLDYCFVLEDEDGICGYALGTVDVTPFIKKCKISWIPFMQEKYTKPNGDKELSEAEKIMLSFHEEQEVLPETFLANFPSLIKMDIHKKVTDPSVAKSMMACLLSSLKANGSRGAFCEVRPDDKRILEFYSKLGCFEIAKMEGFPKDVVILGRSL
UniProt Q07011, whole entry, looked up: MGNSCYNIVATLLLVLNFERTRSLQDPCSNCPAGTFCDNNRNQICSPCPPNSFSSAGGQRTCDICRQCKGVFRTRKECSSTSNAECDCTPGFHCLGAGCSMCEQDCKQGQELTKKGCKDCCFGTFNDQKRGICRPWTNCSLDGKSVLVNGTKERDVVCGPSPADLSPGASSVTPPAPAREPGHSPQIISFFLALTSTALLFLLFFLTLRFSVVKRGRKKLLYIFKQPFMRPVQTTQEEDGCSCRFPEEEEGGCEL
UniProt P29317, 596-900 limits assumed: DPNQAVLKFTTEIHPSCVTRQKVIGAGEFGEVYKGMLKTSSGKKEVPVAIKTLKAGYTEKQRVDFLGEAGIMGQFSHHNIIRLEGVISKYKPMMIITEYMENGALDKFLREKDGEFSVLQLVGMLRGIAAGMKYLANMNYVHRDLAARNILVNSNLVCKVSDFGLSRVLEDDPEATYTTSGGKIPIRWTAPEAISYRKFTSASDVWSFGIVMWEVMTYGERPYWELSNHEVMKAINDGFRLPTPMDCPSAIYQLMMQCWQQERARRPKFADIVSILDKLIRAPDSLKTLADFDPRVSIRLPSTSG

`Cc1cccc(C2NC(=O)c3c(Cl)cccc3N2)c1` (racemic) gave a Kd of 11 ± 2 µM (SWI/SNF-related matrix-associated actin-dependent regulator of chromatin subfamily A member 2, L1418Y (SMARCA2, Homo sapiens, UniProt P51531, L1436Y); ITC; mutant).
The Kd of `CC(C)Oc1cc(C#N)ccc1C1=N[C@@H](c2cccc(Cl)c2)[C@@H](c2ccc(Cl)cc2)N1C(=O)N1CCNC(=O)C1` is reported as 0.8 ± 0.7 µM (Protein Mdm4 (MDM4, Homo sapiens, UniProt O15151); NMR HSQC titration; pH 6.5, 298 K, global fit).
With `CCc1ccc(C(=O)Nc2ccccc2C(=O)O)cc1S(=O)(=O)Nc1ccc(Cl)c(Cl)c1` the Kd was 4 µM (RPA1 N-terminal domain; binding, fluorescence polarisation competition; together with: FITC-ATRIP probe).
For `COc1cc(OC)c(C2CC(c3c(C)cc4oc(=O)cc(C)c4c3O)=NN2)cc1OC` (stereo not drawn), the Kd was 1.52 µM (Hepatitis A virus cellular receptor 2; microscale thermophoresis).
`CC(=O)Nc1ncc(CN2CC[C@H](Oc3cccc(F)n3)C[C@@H]2C)s1` [isotope labelled] gave a Kd of 0.0026 ± 0.0007 µM (Protein O-GlcNAcase (OGA, Homo sapiens, UniProt O60502); saturation binding; human hippocampus homogenate; radiolabelled compound).
With `O=C(NCCCN1CCN(c2cccc(Cl)c2)CC1)C1CCCN(c2ccncc2)C1` (stereo not drawn) the Kd was 0.88 µM (Hepatitis A virus cellular receptor 2; microscale thermophoresis).
`CCc1ccc(NC(=O)c2ccc(C)c(S(=O)(=O)Nc3cccc(Cl)c3)c2)c(C(=O)O)c1` gave a Kd of 6 ± 0.37 µM (RPA1 N-terminal domain; binding, fluorescence polarisation competition; together with: FITC-ATRIP probe).
`Cc1ccc(NC(=O)NC(=O)COC(=O)c2ccc(O)cc2O)c(C)c1` gave a Kd of 0.43 µM (Hepatitis A virus cellular receptor 2; microscale thermophoresis).
`CC(C)c1ccc(C(=O)Nc2ccccc2C(=O)O)cc1S(=O)(=O)Nc1ccc(Cl)c(Cl)c1` gave a Kd of 5 µM (RPA1 N-terminal domain; binding, fluorescence polarisation competition; together with: FITC-ATRIP probe).
For `Cc1nc2c(C#N)cnn2c(C)c1CCC(=O)NC(C)c1cccc(OC(C)C)c1` (stereo not drawn), the Kd was 10.3 µM (Tumor necrosis factor receptor superfamily member 9 (Homo sapiens, UniProt Q07011); binding, microscale thermophoresis).
`Cc1ccc(NC(=O)c2ccc(C)c(S(=O)(=O)Nc3cccc(Cl)c3)c2)c(C(=O)O)c1` gave a Kd of 30 ± 1 µM (RPA1 N-terminal domain; binding, fluorescence polarisation competition; together with: FITC-ATRIP probe).
For `COc1cc(NC(=O)c2ccc(C)c(Nc3nc(-c4cccnc4)nc4c3cnn4C)c2)cc(OC)c1`, the Kd was 0.003 µM (EPHA2 (Homo sapiens, UniProt P29317); binding, microscale thermophoresis; kinase domain; 25 °C, 5% DMSO).

Repeated from above:
With `O=C(NCCCN1CCN(c2cccc(Cl)c2)CC1)C1CCCN(c2ccncc2)C1` (stereo not drawn) the Kd was 0.88 µM (Hepatitis A virus cellular receptor 2; microscale thermophoresis).
